Experimental data collected from several papers.
Parts stem from different laboratories: compare values within a part only. Several values in a cell are separate wells, animals, samples, runs or records.
Chain of UniProt O00506 (whole entry, looked up): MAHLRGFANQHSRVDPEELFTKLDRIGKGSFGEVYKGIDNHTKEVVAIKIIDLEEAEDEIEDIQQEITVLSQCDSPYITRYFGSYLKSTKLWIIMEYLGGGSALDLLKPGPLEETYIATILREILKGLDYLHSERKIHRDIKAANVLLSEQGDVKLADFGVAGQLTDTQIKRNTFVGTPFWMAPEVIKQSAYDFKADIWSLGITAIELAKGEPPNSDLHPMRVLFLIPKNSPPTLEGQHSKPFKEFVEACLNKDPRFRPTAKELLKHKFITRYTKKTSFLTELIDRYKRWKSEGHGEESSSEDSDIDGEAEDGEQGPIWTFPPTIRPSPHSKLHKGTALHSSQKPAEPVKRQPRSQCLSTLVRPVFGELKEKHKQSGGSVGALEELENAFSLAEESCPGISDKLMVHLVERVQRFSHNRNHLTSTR
Chain of UniProt Q9H3Y6 (whole entry, looked up): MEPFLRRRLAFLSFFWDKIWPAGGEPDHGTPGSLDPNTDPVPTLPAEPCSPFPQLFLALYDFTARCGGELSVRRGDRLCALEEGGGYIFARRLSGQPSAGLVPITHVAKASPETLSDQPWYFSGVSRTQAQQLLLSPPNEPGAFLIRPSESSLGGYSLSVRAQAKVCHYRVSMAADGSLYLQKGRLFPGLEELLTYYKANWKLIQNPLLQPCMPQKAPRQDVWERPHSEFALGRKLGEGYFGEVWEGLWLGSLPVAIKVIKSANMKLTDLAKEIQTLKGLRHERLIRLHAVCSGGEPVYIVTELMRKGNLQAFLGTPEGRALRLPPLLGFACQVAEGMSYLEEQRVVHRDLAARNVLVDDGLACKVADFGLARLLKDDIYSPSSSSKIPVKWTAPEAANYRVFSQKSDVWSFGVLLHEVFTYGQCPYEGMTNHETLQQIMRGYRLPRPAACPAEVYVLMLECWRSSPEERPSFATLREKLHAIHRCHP
Chain of UniProt Q13043 (whole entry, looked up): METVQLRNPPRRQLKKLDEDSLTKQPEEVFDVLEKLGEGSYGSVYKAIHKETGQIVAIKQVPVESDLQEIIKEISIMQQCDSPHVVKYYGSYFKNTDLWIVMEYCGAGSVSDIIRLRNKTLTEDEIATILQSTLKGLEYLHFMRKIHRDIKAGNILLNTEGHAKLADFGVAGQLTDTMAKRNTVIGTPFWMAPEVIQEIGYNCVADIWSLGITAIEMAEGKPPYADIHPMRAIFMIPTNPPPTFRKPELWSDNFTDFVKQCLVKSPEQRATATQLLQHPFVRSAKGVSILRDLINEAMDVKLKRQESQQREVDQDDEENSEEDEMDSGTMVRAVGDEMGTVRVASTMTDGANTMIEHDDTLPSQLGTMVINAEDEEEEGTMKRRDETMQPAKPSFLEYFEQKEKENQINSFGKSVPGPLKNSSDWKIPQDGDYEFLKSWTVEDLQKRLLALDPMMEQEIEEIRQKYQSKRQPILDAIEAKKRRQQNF
Chain of UniProt Q8NI60 (whole entry, looked up): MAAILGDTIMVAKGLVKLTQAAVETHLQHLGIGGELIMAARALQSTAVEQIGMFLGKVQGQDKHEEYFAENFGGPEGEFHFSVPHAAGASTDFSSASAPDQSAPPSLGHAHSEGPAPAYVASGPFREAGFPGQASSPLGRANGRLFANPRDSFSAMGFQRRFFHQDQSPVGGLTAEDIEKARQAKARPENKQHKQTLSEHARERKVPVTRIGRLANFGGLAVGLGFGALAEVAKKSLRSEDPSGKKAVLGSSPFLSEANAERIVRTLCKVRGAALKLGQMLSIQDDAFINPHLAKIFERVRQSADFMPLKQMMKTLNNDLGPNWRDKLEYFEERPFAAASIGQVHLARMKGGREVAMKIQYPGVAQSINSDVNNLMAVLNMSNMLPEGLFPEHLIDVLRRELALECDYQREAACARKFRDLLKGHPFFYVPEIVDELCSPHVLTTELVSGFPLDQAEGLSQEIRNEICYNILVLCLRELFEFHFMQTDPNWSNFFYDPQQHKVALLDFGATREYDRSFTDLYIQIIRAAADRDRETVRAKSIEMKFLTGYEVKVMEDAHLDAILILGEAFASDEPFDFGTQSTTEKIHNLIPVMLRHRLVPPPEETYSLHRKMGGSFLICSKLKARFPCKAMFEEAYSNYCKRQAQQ
Chain of UniProt Q16539 (whole entry, looked up): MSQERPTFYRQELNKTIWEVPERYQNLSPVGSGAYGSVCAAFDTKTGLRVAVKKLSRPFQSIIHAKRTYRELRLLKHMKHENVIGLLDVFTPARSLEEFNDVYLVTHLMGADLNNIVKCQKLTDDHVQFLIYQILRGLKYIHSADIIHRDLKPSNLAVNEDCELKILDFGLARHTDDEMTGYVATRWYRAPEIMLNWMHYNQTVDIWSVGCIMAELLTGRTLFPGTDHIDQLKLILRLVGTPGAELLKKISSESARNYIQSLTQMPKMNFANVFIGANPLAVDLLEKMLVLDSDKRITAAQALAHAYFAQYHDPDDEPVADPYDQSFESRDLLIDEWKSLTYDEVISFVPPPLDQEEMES
Chain of UniProt Q00532 (whole entry, looked up): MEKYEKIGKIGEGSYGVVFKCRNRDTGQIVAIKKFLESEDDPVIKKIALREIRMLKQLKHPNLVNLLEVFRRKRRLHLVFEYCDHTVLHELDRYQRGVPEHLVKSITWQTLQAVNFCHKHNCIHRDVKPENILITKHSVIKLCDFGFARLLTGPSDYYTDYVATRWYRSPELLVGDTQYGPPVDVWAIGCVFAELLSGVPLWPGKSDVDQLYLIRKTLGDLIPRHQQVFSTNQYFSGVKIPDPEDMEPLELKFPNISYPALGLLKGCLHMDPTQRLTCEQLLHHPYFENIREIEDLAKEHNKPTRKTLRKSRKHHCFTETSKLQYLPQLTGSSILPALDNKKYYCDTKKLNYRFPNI
Chain of UniProt P51812 (whole entry, looked up): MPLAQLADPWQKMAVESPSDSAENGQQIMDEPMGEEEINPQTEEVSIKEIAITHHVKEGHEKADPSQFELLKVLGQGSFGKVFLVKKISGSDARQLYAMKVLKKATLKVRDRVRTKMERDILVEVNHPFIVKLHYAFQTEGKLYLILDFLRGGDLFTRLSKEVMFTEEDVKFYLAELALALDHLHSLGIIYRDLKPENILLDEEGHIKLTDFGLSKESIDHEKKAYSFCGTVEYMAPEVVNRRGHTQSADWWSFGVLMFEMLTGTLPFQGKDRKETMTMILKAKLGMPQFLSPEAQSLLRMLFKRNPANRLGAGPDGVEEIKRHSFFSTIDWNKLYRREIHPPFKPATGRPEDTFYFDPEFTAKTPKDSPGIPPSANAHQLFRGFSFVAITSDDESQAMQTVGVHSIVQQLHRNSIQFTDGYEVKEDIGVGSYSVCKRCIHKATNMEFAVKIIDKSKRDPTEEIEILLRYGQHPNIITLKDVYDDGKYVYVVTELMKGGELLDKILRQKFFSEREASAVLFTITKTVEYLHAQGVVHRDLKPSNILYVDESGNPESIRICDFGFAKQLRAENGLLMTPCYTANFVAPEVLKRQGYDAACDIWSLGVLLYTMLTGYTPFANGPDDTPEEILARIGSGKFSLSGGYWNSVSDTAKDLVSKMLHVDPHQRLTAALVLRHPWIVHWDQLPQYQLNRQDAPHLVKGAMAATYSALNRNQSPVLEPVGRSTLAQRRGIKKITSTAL

Block 1
Cell line: mouse MPNST tumor cells
Method: high-content immunofluorescence imaging
Measured: nuclear SOX9
Tested at: 10 µM
Time: 12 h
Setting: mean of 2 replicates
Relative to: DMSO control
Reading: higher = more nuclear SOX9
CC(C)(C)OC(=O)CN(Cc1ccc(Cl)cc1)Cc1ccc([N+](=O)[O-])s1 — result for “nuclear SOX9 intensity”: 129 % of DMSO.
CC(=O)O[C@@]12CO[C@@H]1C[C@H](O)[C@@]1(C)C(=O)[C@H](O)C3=C(C)[C@@H](OC(=O)[C@H](O)[C@@H](NC(=O)OC(C)(C)C)c4ccccc4)C[C@@](O)([C@@H](OC(=O)c4ccccc4)[C@H]21)C3(C)C: “nuclear SOX9 intensity” 144 % of DMSO and 163 % of DMSO and 123 % of DMSO.
CC(C)c1ccc(NC(=O)c2cccs2)c(-c2nc3ccccc3[nH]c2=O)c1 — result for “nuclear SOX9 intensity”: 101 % of DMSO.
For O=C(O)[C@H]1/C(=C/CO)O[C@@H]2CC(=O)N21, “nuclear SOX9 intensity” read 93.7 % of DMSO.
COc1ccccc1-c1c[nH]c2ncc(-c3cncc(C(=O)N(C)C)c3)cc12: “nuclear SOX9 intensity” 113 % of DMSO.
O=C1NC(=O)c2cc(Nc3ccccc3)c(Nc3ccccc3)cc21: “nuclear SOX9 intensity” 164 % of DMSO.

Block 2
SMILES: C=CC(=O)N1CCC([C@@H]2CCNc3c(C(N)=O)c(-c4ccc(Oc5ccccc5)cc4)nn32)CC1
Tested at: 1 µM
Serine/threonine-protein kinase 25 (STK25, Homo sapiens, UniProt O00506); enzyme activity, inhibitor — inhibition: 8%.
It gave 30% for inhibition (Ribosomal protein S6 kinase alpha-3, N-terminal kinase domain (RPS6KA3, Homo sapiens, UniProt P51812); inhibitor).
Receptor-type tyrosine-protein kinase FLT3, autoinhibited (FLT3, Homo sapiens, UniProt P36888); enzyme activity, inhibitor — inhibition: 12%.
Tyrosine-protein kinase Srms (SRMS, Homo sapiens, UniProt Q9H3Y6); enzyme activity, inhibitor — inhibition: 88%.
The inhibition was 6% (Calcium/calmodulin-dependent protein kinase type 1G (CAMK1G, Homo sapiens, UniProt Q96NX5); enzyme activity).
It gave 94% for inhibition (Tyrosine-protein kinase CSK (CSK, Homo sapiens, UniProt P41240); enzyme activity, inhibitor).
It gave 0% for inhibition (Serine/threonine-protein kinase 24 (STK24, Homo sapiens, UniProt Q9Y6E0); enzyme activity, inhibitor).
It gave 0% for inhibition (Leucine-rich repeat serine/threonine-protein kinase 2 (LRRK2, Homo sapiens, UniProt Q5S007); enzyme activity, inhibitor).

Block 3
Target: Alpha-2A adrenergic receptor (ADRA2A, Homo sapiens, UniProt P08913)
Chain of UniProt P08913 (whole entry, looked up): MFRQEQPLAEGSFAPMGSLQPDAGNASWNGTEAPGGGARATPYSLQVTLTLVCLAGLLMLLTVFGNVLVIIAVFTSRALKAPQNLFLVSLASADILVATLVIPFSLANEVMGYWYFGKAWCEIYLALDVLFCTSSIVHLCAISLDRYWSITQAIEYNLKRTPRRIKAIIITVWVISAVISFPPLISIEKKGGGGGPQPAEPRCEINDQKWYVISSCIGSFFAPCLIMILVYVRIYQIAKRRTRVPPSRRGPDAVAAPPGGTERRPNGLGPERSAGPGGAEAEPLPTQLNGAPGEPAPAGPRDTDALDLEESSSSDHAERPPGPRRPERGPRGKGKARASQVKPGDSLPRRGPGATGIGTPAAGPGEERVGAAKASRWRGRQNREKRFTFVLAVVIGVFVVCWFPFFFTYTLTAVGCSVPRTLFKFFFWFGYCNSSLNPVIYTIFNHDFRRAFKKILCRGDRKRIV
Read-out: binding
Method: radioligand binding
Tested at: 10 µM
COCCc1ccc(-c2c(C)nc3c(N4CCOCC4)ccnn23)cn1 has an inhibition of -15.2%.
For Cc1nc(Cc2cccc(C(F)(F)F)c2)sc1-c1ccc(C(N)=O)nc1, the inhibition was 4.44%.
With CC(=O)N1CCC(c2ccc(C(=O)NC(=N)N)cc2C(F)(F)F)CC1 the inhibition was -0.34%.
CC1=C(C#N)C(c2ccc3c(c2)c(NC(=O)c2ccccc2C)nn3C)C(C#N)=C(C)N1 has an inhibition of 14.4%.
O=C(O)c1cc(-c2ccc(C3CCNCC3)cc2)c2ccc(-c3ccc(C(F)(F)F)cc3)cc2c1 has an inhibition of 38.2%.
O=C1CCc2cc(Nc3cc(OC4CCOCC4)c([N+](=O)[O-])cc3Cl)ccc2N1 gave an inhibition of 4.66%.
With CNC(=O)Nc1ccc2c(c1)[C@]1(CC2)OC(=O)N(CC(=O)N(Cc2ccc(F)cc2)[C@@H](C)C(F)(F)F)C1=O the inhibition was -1.4%.
The inhibition of CC(C)(O)c1cncc(-c2nc3ccc(F)cc3n2C2CC2)c1 is reported as 74.6%.
With O=C(Nc1cnc(Oc2ccc(F)cc2)nc1)N1CCc2ncccc2[C@@H]1c1ccc(F)cc1 the inhibition was 9.77%.
CCCOc1ccc([C@H]2[C@H](C(=O)O)[C@@H](c3ccc4c(c3)OCO4)CN2CC(=O)Nc2c(CC)cccc2CC)cc1 gave an inhibition of 9.55%.
CC1=C(C#N)[C@@H](c2ccc3[nH]nc(C)c3c2)C(C#N)=C(c2ccc(Cl)cc2)N1 gave an inhibition of 7.83%.
The inhibition of CCOCCn1cc(C(=O)Nc2ccc(-n3nc(-c4cccnc4)cc3C(F)(F)F)cn2)ccc1=O is reported as -1.74%.
The inhibition of Cc1c(N2CCCC2)nc2ccc(Br)cc2c1C(=O)NC[C@H](CCC(=O)O)c1ccccc1Cl is reported as -4.59%.
For CN(C)C(=O)Cn1cc(-c2nc([C@@](C)(c3ccc(-c4cnc(N)nc4)cc3)C3CC3)no2)cn1, the inhibition was -3.33%.
O=C1c2ccc(Nc3ccc(F)cc3F)cc2CCc2ccc(OC[C@H](O)CO)cc21 has an inhibition of 39.6%.
With O=C(Nc1ccc(-n2nc(-c3cccnc3)cc2C(F)(F)F)cn1)c1ccc(-c2ccccc2)c(F)c1 the inhibition was 8.3%.
For COc1nc2ccc([C@@](O)(c3ccccc3)C3CCN(C(C)=O)CC3)cc2c(Cl)c1Cc1ccc(-n2cccn2)cc1, the inhibition was 20.8%.
COc1cc(-c2cn(C3CCc4ccccc4N(CC(F)(F)F)C3=O)nn2)ccc1-n1ccc(C)n1 (stereo not drawn) gave an inhibition of 22.2%.
O=C(NC[C@@H]1[C@H]2CN(C(=O)OCc3cc(C(F)(F)F)cc(C(F)(F)F)c3)C[C@@H]12)c1ccc2[nH]nnc2c1 has an inhibition of 14.3%.
Cc1cc(C)c(-n2ccn3nc(-c4cccnc4)cc23)cc1NC(=O)c1cc(C#N)cc(S(F)(F)(F)(F)F)c1 has an inhibition of 11.1%.
O[C@]1(C(F)(F)F)CCCC[C@H]1Nc1ccc(F)cc1 has an inhibition of -17.7%.
For CN([C@@H]1CCc2c(CC(=O)O)c3cc(S(C)(=O)=O)ccc3n2C1)S(=O)(=O)c1ccc(F)cc1, the inhibition was -10.6%.
Cc1cc(-n2nc(Cc3cc(F)cc(C(F)(F)F)c3)nc2C)ccc1C(N)=O has an inhibition of 8.93%.
For O=C([C@H]1C[C@H](O)CN1c1ccc(Cl)cc1)N1CC2COCC(C1)N2Cc1ccc(Cl)cc1, the inhibition was 11.3%.
O=C(Nc1cccnn1)N1CCC(=Cc2cccc(Oc3ccc(C(F)(F)F)cn3)c2)CC1 has an inhibition of 34.5%.

Block 4
SMILES: CN1CCC[C@H]1COc1nc2c(c(N3CCN(S(C)(=O)=O)[C@@H](CC#N)C3)n1)CCN(c1cccc3cccc(Cl)c13)C2
Read-out: binding
Mode: competitor
Method: NanoBRET
Cell line: HEK293
KRAS Q61L: GTPase KRas (KRAS, Homo sapiens, UniProt P01116, Q61L)
The normalized BRET was 100% and 87.4% and 92.6% (KRAS Q61L; 45.7 nM).
The normalized BRET was 43.2% and 41.2% and 51.3% (KRAS Q61L; 1.24 µM).
The normalized BRET was 89.7% and 82.7% and 100% (GTPase KRas (KRAS, Homo sapiens, UniProt P01116, Q61H); 45.7 nM).
It gave 14.1% and 19.7% and 15.8% for normalized BRET (KRAS Q61L; 33.3 µM).
The normalized BRET was 64.5% and 76.3% and 66.5% (KRAS Q61L; 412 nM).

Block 5
Compound: C[C@H]1CC[C@H](n2c3cnccc3c3cnc(Nc4ccc5c(n4)CCN(C(=O)CO)C5)nc32)CC1
Tested at: 1 µM
Atypical kinase COQ8A, mitochondrial (COQ8A, Homo sapiens, UniProt Q8NI60); cell-free assay, competition with immobilised ligand — remaining binding: 90%.
It gave 53% for remaining binding (Serine/threonine-protein kinase 25 (STK25, Homo sapiens, UniProt O00506); binding, competition with immobilised ligand).
For Myosin-IIIb (MYO3B, Homo sapiens, UniProt Q8WXR4); binding, competition with immobilised ligand: remaining binding read 100%.
For Serine/threonine-protein kinase 4 (STK4, Homo sapiens, UniProt Q13043); binding, competition with immobilised ligand: remaining binding read 100%.
For Cyclin-dependent kinase-like 1 (CDKL1, Homo sapiens, UniProt Q00532); binding: remaining binding read 65%.
Mitogen-activated protein kinase 14 (MAPK14, Homo sapiens, UniProt Q16539); binding, competition with immobilised ligand — remaining binding: 88%.
It gave 14% for remaining binding (Mast/stem cell growth factor receptor Kit (KIT, Homo sapiens, UniProt P10721); binding, competition with immobilised ligand).

A few entries again (block 5):
Atypical kinase COQ8A, mitochondrial (COQ8A, Homo sapiens, UniProt Q8NI60); cell-free assay, competition with immobilised ligand — remaining binding: 90%.
It gave 53% for remaining binding (Serine/threonine-protein kinase 25 (STK25, Homo sapiens, UniProt O00506); binding, competition with immobilised ligand).
For Myosin-IIIb (MYO3B, Homo sapiens, UniProt Q8WXR4); binding, competition with immobilised ligand: remaining binding read 100%.
For Serine/threonine-protein kinase 4 (STK4, Homo sapiens, UniProt Q13043); binding, competition with immobilised ligand: remaining binding read 100%.
For Cyclin-dependent kinase-like 1 (CDKL1, Homo sapiens, UniProt Q00532); binding: remaining binding read 65%.
